# Published values collected from several papers.
# Every numbered part comes from another study and shows a few of its results, in no order.

# Study 1 — technique: protein-binding microarray; molecule type: double-stranded DNA, one strand shown; sample: in vitro; tested at: not given; reading: higher = stronger binding
# Target: Myc proto-oncogene protein, bHLH-zipper, MAX partner unstated (MYC, Homo sapiens, UniProt P01106, residues 368-449)
# Chain of UniProt P01106 (368-449, looked up): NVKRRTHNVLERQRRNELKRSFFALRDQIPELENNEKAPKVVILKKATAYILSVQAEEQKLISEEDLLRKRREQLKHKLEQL
# Notes: k-mer, scored over probes, only values ≥0.25
Strand,E-score
CAAACACG,0.344
CATGTCAC,0.368
CATGGAGG,0.32
ATGCAGCG,0.268
CCCCACCA,0.286
CGTGTTAA,0.297
ATCCGCAT,0.262
ACGCGTCA,0.303
ACACGGGA,0.271
GTCCCCAC,0.254
CAAGCGTG,0.402
CGTGCCCA,0.306
ATGCGTAG,0.264
ACGCGACG,0.307
CATGGAAG,0.273
CGTGTAGC,0.33
CGACATGC,0.367
CCACCCCA,0.386
CGCCCACC,0.29
ACGGTGTG,0.291
ACACGCGC,0.443
ACGCGCAC,0.323

# Study 2 — technique: RNA Bind-n-Seq; molecule type: RNA; sample: in vitro; tested at: 365 nM; baseline: no-protein control; reading: higher = stronger binding
# Target: RNA binding protein fox-1 homolog 2, RRM domain, GST-SBP tag (RBFOX2, Homo sapiens, UniProt O43251-10, residues 100-194)
# Notes: natural RNA segment, single round, ends assumed
# Shared flanks, not repeated: GGGAGUUCUACAGUCCGACGAUC … UGGAAUUCUCGGGUGCCAA
# Residues (chain): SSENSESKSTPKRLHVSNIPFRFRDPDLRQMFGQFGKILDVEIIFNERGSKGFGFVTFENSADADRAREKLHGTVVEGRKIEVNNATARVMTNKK
Strand,RBNS enrichment (R)
UGUGUGUAAAAUGUCAUUUAAAGUGUUUUCAAAUGCAUUGCUCUUACAAUUUAUUUUCCUUUAACUCUUCUAUGAUAUUUAAAGCGUGCAUCUGCCACAUUGAUGAUUAA,0.524
ACCAAAUGCAGACAAAUGGGAGAACCAGUUCCCCAGCUUAUGUUAGCAUAGUCAACAGCGAGCAUAAAGACUUUGUCACUUGGAGCGUUACCAGCAGAGUAAAUGUGGCC,0.448
CGCUUGGGUGCGUGGGAGGGCGCACAUCAGGGCAGAGGCCAAGUUCCAGGUGUCUGUGUUCCCAGGAACCAAAUGGGGAGUCUGGGGCCCGUUUUCCCCCCAGGGGGUGU,0.718
ACCAAGUGCUGCGACUCAGCCAACAACUUACCACAUUCGGGGCUGGGAGCUGUUCUAAGAAAGGGACCUCCCUCUCCUUUUUAAAUUGGUGAGCCACAAAUUACAUUGAU,0.422
UAUUUCUUGCUAUGAGAGUAUUUUGUAUGGUAUUAUUUCUUUUUUGUUGUAAGCUAACAAGUGGAGAAACACUUUUUUUUUUCAGAAAUGGUUUGGAUUAUUUAUAGUCC,0.634
GUAAUUGGGAUUCCAACUAGAUAGUCAUUGGUGUGACCAUAAUAAAAACAAAAGCUAAAAUAAAAGCAUCAGAUUUAGACUGGCGCUGUGCCCUCUACCACUAUAUGCCA,0.635
AAAGCAACAUGGAAAUAACCAUAGACAAAACUUAUUUGGGUAACUAGAAACCAAUGAGCUUUAGAUUCAUUCCUGGGUUUUUGCUUAAAAAAAAGUGAACUAAUAUAGCA,2.6
UCUAUCUCACUUCACUGUGAGGGGAAGACCUUCUCAUGGGAACUCUCCAAAUACCAUUCAAGUGCCUCUUGUUGAAAGAUUCCUUCAUGGUGGAAGGGGGUGCAUGUAUG,1.15
UUCUGAGAUAUUUACAGUAUUAUUAAAAAAUGAAAAAGGUUGUACUGUUUUGCAUAAUGAACAUUUUUAUUGGGCAUUCAAAGGGUGCAAGAUUGUCUGCUUACUCAUUU,0.914
GUGGGCAACAUCCUCACUAAGCUGGUUAUGAAUAUAACCAGUGACUUCAACUUUGGCAUUUCAUUCAUACUUCUGUAGAGAACGGAAAACUAUUGUCCAUUAACAUGAUA,0.242
UUGUGUGGAAGCAAUGUGGAGUGAAUGAGCAUAUUUUGAUUUAAGCAAGGUAGCUUGGAAUACCUUUUUUAAAAACAACUGGAUAUAAAUAUGUCUGACAGGAUUGGAAU,4.65
UCCCUCCCUCUCUUGCCAGCACAUCCCUUAGUCCCCUUGAGACAAGUGGACCUAAGUGGCCGAGAGAGGAGGGUCUGGCCUCCUUGGCCCCCCAUCUUGCUUUCCCAGGG,0.344

# Study 3 — technique: protein binding microarray; molecule type: double-stranded DNA, one strand shown; sample: in vitro; tested at: not given; baseline: not given; reading: higher = stronger binding
# Target: Histone acetyltransferase KAT6A, winged helix 1, GST fusion (KAT6A, Homo sapiens, UniProt Q92794, residues 1-85)
# Notes: 8-mer, flanks averaged, mean of 2 arrays, mostly near background
# Target sequence (chain): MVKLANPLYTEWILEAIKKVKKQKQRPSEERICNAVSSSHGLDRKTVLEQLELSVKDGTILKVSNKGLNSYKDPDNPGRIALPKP
Strand,E-score
ATCGCGCA,0.26
ACAACCTG,-0.339
ATTTCACC,-0.184
GAACCCTA,-0.0897
ACTTTAAG,-0.0836
CTTGCTAC,-0.168
CCCCATAA,-0.219
TCTCAACA,-0.122
CATATTGG,-0.259
ACAAGCGT,0.0106
CATCCTAG,-0.132
CAGTGTTC,-0.0221
CGAGGGTC,0.137
GTCGGCCA,0.125
AAAATAGC,-0.09
ATCCACGC,0.0987
AGAGAGCG,0.163
GAGTTTCC,-0.0158
AATATCAT,0.0259
ACTTATAG,0.0259
CGGCTCAC,0.201

# Study 4 — technique: protein-binding microarray; molecule type: double-stranded DNA, one strand shown; sample: in vitro; tested at: 250 nM; notes: 60-bp whole probe; together with: salmon DNA 0.4 mg/ml; baseline: random background probes; reading: higher = stronger binding; shared flanks, not repeated: GCCTAGCAC … GTCTTGATTCGCTTGACGCTGCTG
# Target: Interferon regulatory factor 7, full length, phosphomimetic (IRF7, Homo sapiens, UniProt Q92985, residues 1-503, S101K/S471D/S472D/S475D/S476D/S477D/S483D/S484D/S487D)
# Chain of UniProt Q92985 (whole entry, unmodified, looked up): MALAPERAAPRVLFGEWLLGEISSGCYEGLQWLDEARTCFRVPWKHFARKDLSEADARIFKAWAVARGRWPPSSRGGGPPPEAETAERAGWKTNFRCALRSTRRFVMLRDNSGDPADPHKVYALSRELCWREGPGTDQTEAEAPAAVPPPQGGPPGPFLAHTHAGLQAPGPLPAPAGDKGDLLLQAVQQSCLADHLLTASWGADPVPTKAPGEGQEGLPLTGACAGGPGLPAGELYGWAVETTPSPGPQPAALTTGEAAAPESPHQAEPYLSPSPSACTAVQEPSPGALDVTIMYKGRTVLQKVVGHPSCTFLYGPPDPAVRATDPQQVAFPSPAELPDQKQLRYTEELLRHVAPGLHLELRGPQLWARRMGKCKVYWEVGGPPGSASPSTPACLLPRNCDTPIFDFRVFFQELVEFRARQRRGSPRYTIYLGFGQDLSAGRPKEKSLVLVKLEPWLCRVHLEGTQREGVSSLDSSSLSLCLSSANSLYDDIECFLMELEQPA
Strand,log fluorescence [z-score]
TTAGGACTGGGGACTGGGCTAGTGCTA,-0.748
CACCTTCTTCATCAAGGACAGTGCTAG,0.828
TTAGGTCTCGGGTTTCGGTTAGTGCTA,7.57
TCAGTCATCGATTTCTTACTGTGCTAG,0.299
GACGATTTCGGGACGGGAGACGTGCTA,0.158
GACGGTATCCTTATCCTGATGTGCTAG,-0.0237
TTAGGACTGCTACTGCTCTAGTGCTAG,-0.373
TGGGACCAGCACAGACAGTCGTGCTAG,-0.073
TTAGATATCGGATTTCGATTAGTGCTA,1.07
GACGGTCTCCTTTTCTTGACGTGCTAG,1.02
GACGATTTCAGATCCGAGACGTGCTAG,0.305
CGCTCTGTGCTCTTTGGGCTGTGCTAG,-0.499
GACGGTTTCGGTCTCGCGACGTGCTAG,7.86
TTAGGTTTCGGTTCCCGTTAGTGCTAG,13.3
TCAATTATCCTTGTCCCACTGTGCTAG,0.778
TCATTTTCATTGTTTTTCACTGTGCTA,1.6
TTAGGACTGCGTATCCTTTAGTGCTAG,-0.0103
GACGATATCAGTTGCGAGACGTGCTAG,-0.164
GACGGTTTCGGGACCGGGGACGTGCTA,3.7
TTAGGACTGCGTTTCGGTTAGTGCTAG,2.45
TCAATCATTGTTTTCAGTTTGTGCTAG,1.57
TACGGTCTCGGACTGGGGACGTGCTAG,0.124
TTAGGTATCAGGTATCGGTTAGTGCTA,0.95
GACGAACCGGGGACTGGAGACGTGCTA,-0.217
GACGGTTTCGACTATCGGGATGTGCTA,5.42

# Study 5 — technique: universal PBM; molecule type: double-stranded DNA, one strand shown; sample: in vitro; tested at: not given; reading: higher = stronger binding
# Target: Sal-like protein 4, full length isoform B (SALL4, Homo sapiens, UniProt Q9UJQ4-2, residues 1-616)
# Notes: 8-mer, flanks averaged, mean of replicates
Strand,E-score
CTGCATTC,0.0568
GATCGCCC,-0.338
ACAACGCA,0.0444
GGACACAA,0.0807
ATCAGCCG,-0.243
AATGGGAA,0.14
ATGCTGGA,-0.115
CGGTCGGA,-0.299
ACCACCGC,-0.285
AACTACTA,0.225
CACTAGCC,-0.2
CCAAGCTA,-0.0751
CGTCCATC,-0.0599
AACGCATT,0.18
ACCGATAC,0.0877
CTCGCGAC,-0.262
GAGCTTTA,0.0367
CCCCAAAC,-0.148
AACTTTGC,-0.14
ATCGTGGC,0.0313

# Study 6 — technique: RNA Bind-n-Seq; molecule type: RNA; sample: in vitro; tested at: 200 nM; notes: whole 134-nt RNA, ends assumed; together with: 150 mM KCl; baseline: input library; reading: higher = stronger binding
# Target: Ras GTPase-activating protein-binding protein 1, full length (G3BP1, Homo sapiens, UniProt Q13283)
# Chain of UniProt Q13283 (whole entry, looked up): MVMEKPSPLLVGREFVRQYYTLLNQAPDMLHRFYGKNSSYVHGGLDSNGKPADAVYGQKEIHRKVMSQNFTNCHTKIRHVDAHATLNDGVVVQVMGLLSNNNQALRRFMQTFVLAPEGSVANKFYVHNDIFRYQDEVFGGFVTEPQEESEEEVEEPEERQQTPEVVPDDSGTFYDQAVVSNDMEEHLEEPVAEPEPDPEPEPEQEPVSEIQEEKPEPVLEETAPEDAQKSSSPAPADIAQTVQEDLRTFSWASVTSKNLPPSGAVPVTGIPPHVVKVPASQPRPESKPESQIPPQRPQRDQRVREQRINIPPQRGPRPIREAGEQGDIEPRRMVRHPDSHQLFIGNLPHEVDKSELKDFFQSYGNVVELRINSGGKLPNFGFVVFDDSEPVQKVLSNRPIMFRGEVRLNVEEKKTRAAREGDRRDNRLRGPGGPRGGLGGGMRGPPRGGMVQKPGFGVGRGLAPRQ
# Shared flanks, not repeated: GGGAGUUCUACAGUCCGACGAUC … UGGAAUUCUCGGGUGUCAAGG
Strand,log2 enrichment
AAGUCCUGUGCUACACAUCGUAUGUACCGAAUCGGAGGAAAAAAAGGUUUUUUUGGAAAGUAUUAUGUUACGCCGUUCGGAUCUGCACUU,-1.43
AAGUCCUGUGCUACACAUCGUAUGUACCGAAUCGGAAAGGAAAAAAAGGAAAAAGGAAAGUAUUAUGUUACGCCGUUCGGAUCUGCACUU,-0.939
CUGUGCUACACAUCGUAUGUACCGAAUCGGGGUUUGGGGAAAAAAAGGGGAAAAAAAGGGGAAAGUAUUAUGUUACGCCGUUCGGAUCUG,-0.213
AAGUCCUGUGCUACACAUCGUAUGUACCGAAUCGGGUUUUUUUGGGAGGGAAAGGGAAAGUAUUAUGUUACGCCGUUCGGAUCUGCACUU,0.065
AUCAUUUCAUUUUUAUAAUUAUACAUUAGACAUUGGCACUUGUGUAAAACUGUCCCUGCAGAUUGAGCAGGAAGUAAAAACAAAUGGAAA,-0.00105
UCAAGUCCUGUGCUACACAUCGUAUGUACCGAAUCGGGAAAGGGAAAGGAAAGGAAAGUAUUAUGUUACGCCGUUCGGAUCUGCACUUCC,-0.974
UUAGGCACUUGUUGGGCUCAUCACCGUUGUGUGGAGUGGUCACUAGGAGUAUGCCAGAUGGAAGAACCAUUGUUAGUGAACGUGGACAAA,-1.99
UUGUGGUAUUUUAUUUACUUAUUUUUUUAAAUCUUCCAUUACAGCCAUGCCUUUCUUGGACAUCCAGAAAAGGUUCGGCCUUAACAUAGA,-0.459
ACCAUGCAGGUGGGCAUCUUUGGGAAGUGGGGCAAGGGGGGGAUAGGGAGGGGGGUAACACUUUGGGAACAGGUGGUCCCAGGUCGCUUC,1.43
UAACUUUAGAGGAGGAUCUGAUGGAUAUGGCUGUGGACGUGGAUUUGGGGAUGGCUAUAAUGGGUAUGGAGGAGGACCUGGAGGUGGCAA,0.678
GCUGGAAGUAAAAACAAAUGGAAAUGCUUCGGAUAGUGGCAGGGGUGGGGGUUGCUAAGGAAAGGGUGGGAUGGGAGUGGGUAAAGAGUU,1.14
UCGUUCCCCCCGCCACGAGAAGAAGAAGAAGGUCCGUAAAUACUGGGACGUGCCACCCCCAGGCUUUGAGCACAUCACCCCAAUGCAGUA,0.708
ACCAUGCAGGUGGGCAUCUUUGGGAAAAGGGGCAAGGGGGGGAUAGGGAGGGGGGUAACACUUUGGGAACAGGUGGUCCCAGGUCGUUUC,1.43
CCUCAAGUCCUGUGCUACACAUCGUAUGUACCGAAUCGGCCGGCCGGCCGGGGAAAGUAUUAUGUUACGCCGUUCGGAUCUGCACUUCCA,0.744
